# Published values gathered from unrelated publications.
# Protocols differ between the studies behind these lines.
# Cell line: HepG2
SMILES,assay,conditions,how to read,quantity,value
CC(=O)O[C@@H]1CC[C@@]2(C)C(CC[C@]3(C)C2C(=O)C=C2C4[C@@H](C)[C@H](C)CC[C@]4(C)CC[C@]23C)[C@@]1(C)C(=O)OCC(=O)Oc1cc(C)ccc1C(C)C (some centres unmarked),refers to: superoxide dismutase,"1 µM, with: acetaminophen 10 mM",,SOD activity,64 U/mg
Cc1ccc2nc(-c3ccccc3)c(CN3CCOCC3)n2c1,cell growth or viability,48 h,,EC50,> 50 µM
Cc1ccc(NC(=O)c2cccc(C(F)(F)F)c2)cc1N1Cc2cnc(Nc3ccccc3)nc2N(C)C1=O,"cell growth or viability, ATP luminescence",72 h,,GI50,1.89 µM
Cc1ccc2nc(-c3ccccc3)c(CN3CCN(c4ccc(Cl)cc4)CC3)n2c1,cell growth or viability,48 h,,EC50,> 50 µM
CSC(=NN=C(C)c1ccc(S(=O)(=O)N2CCC(C)CC2)cc1)N(C)C,annexin V/PI staining,"IC50, 72 h",,apoptotic cells early,3.94%
C=CCOC(=O)C1C(C=O)=Cc2cc3c(cc2C1c1cc(OC)c(OC)c(OC)c1)OCO3 (centres unmarked),,,reference: CC50 HepG2 over amastigote EC50,selectivity index,> 3.3
CC(=O)O[C@@H]1CC[C@@]2(C)C(CC[C@]3(C)C2C(=O)C=C2C4[C@@H](C)[C@H](C)CC[C@]4(C)CC[C@]23C)[C@@]1(C)C(=O)N/N=C1/C(=O)Nc2ccccc21 (some centres unmarked),"TNF-α production, ELISA, refers to: TNF-α","1 µM, with: acetaminophen 10 mM",reference: acetaminophen-treated cells,inhibition,~39%
CC(=O)O[C@H]1CC[C@]2(C)[C@H]3C(=O)C=C4[C@@H]5C[C@@](C)(C(=O)OCc6ccccc6)CC[C@]5(C)CC[C@@]4(C)[C@]3(C)CC[C@H]2C1(C)C,"autophagy, flow cytometry","4 µM, 48 h, unit not given",reference: untreated,MDC fluorescence intensity,1760
O=C(/C=C/c1ccccc1)OCCCC[P+](c1ccccc1)(c1ccccc1)c1ccccc1,SRB,48 h,reference: IC50 L02 over IC50 HepG2,therapeutic index,11.1
Cc1ccc(NCC(=O)Nc2ccc(F)c(Cl)c2)cc1C(=O)N1CCOCC1,cell growth or viability,,,EC50,> 25 µM
Cc1ccc2nc(-c3ccc(F)c(F)c3)c(CN3CCN(c4ccccc4)CC3)n2c1,cell growth or viability,48 h,,EC50,> 50 µM
Cc1ccc(Nc2ncc3c(n2)N(C)C(=O)N(c2cc(NC(=O)c4ccc(CN5CCN(C)CC5)c(C(F)(F)F)c4)ccc2C)C3)cn1,"cell growth or viability, ATP luminescence",72 h,,GI50,1.32 µM
Cc1cc2nc(-c3cc4ccccc4nc3Cl)[nH]c2cc1C,,"concentration not given, 24 h",reference: untreated,intracellular Ca2+,increased
Cc1ccc(NCC(=O)N2CCC(F)(F)CC2)cc1S(=O)(=O)N1CCOCC1,cell growth or viability,,,EC50,> 25 µM
O=C1CCNC(=O)[C@@H]2CCCN2C(=O)CCNC(=O)[C@H](Cc2c[nH]cn2)NC(=O)[C@H](Cc2c[nH]cn2)N1,LDH,"10 µg/mL, 6 h, 1% FBS",,viability,84.5%
Cc1c(C(=O)NNC(=S)Nc2ccc(Cl)cc2)nnn1Cc1nc2ccccc2[nH]1,annexin V/PI,"concentration not given, 24 h",,necrotic cells,7.12%
CCOc1cccc2c1[O][Pt-2]1([Cl])[N+](=C2)CC[NH+]1c1ccccc1 (centres unmarked),flow cytometry PI,"concentration not given, 24 h",,cells in G0/G1 phase,21 to 27%
Cc1ccc2nc(-c3ccccc3)c(CN3CCCC3)n2c1,cell growth or viability,48 h,,EC50,> 50 µM
Cc1ccc(Nc2ncc3c(n2)N(C)C(=O)N(c2cc(NC(=O)c4ccc(N5CCN(C)CC5)c(C(F)(F)F)c4)ccc2C)C3)cn1,"cell growth or viability, ATP luminescence",72 h,,GI50,0.876 µM
Cc1ccc(N(C)CC(=O)Nc2ccc(F)c(Cl)c2)cc1S(=O)(=O)N1CCOCC1,cell growth or viability,,,EC50,> 25 µM
Cc1ccc2nc(-c3ccc(F)c(F)c3)c(CN3CCN(c4cccc(C(F)(F)F)c4)CC3)n2c1,cell growth or viability,48 h,,EC50,> 50 µM
"C=C1C(=O)C23CCC4C(C)(C)CCCC4(C)C2C(O)CC1C3 (single isomer, unassigned)",,concentration not given,,GSH level,decreased
Cc1ccc(NCC(=O)NC2CCCCC2)cc1S(=O)(=O)N1CCOCC1,cell growth or viability,,,EC50,> 25 µM
O=C(CCNC(=O)[C@H](Cc1c[nH]cn1)NC(=O)[C@@H]1CCCN1)NCCC(=O)N[C@@H](Cc1c[nH]cn1)C(=O)O,MTT,"10 µg/mL, 6 h",,viability,17%
CC(=NN=c1sc(C(=O)c2ccccc2)nn1-c1ccccc1)c1ccc(S(=O)(=O)N2CCC(C)CC2)cc1,annexin V/PI staining,"IC50, 72 h",,apoptotic cells total,22.8%
Cc1ccc(NCC(=O)Nc2ccc(F)c(Cl)c2)cc1S(=O)(=O)N1CCCCC1,cell growth or viability,,,EC50,24 µM
[NH2][Pt]1([NH2])([Cl])([O]C(=O)C(Cl)Cl)[O]C(=O)C2(CC(=O)C2)C(=O)[O]1,annexin V-FITC/PI flow cytometry,"50 µM, 24 h",,early apoptotic cells,21.6%
Cc1ccc(NCC(=O)N(C)c2ccc(F)c(Cl)c2)cc1S(=O)(=O)N1CCOCC1,cell growth or viability,,,EC50,> 25 µM
O=C1/C(=C/c2ccc3c(c2)OCCO3)SC(=S)N1[C@@H]1O[C@H](CO)[C@@H](O)[C@H](O)[C@H]1O,annexin V/PI,"IC50, 48 h",,early apoptotic cells,29.1%
CSC(=S)N/N=C(\C)c1ccc(S(=O)(=O)N2CCC(C)CC2)cc1,annexin V/PI staining,"IC50, 72 h",,apoptotic cells early,3.59%
O=C(O)CCNC(=O)[C@H](Cc1c[nH]cn1)NC(=O)[C@H](Cc1c[nH]cn1)NC(=O)CCNC(=O)[C@@H]1CCCN1,LDH,"10 µg/mL, 6 h, 1% FBS",,viability,63.7%
CCC[C@H]1CC[C@H](c2ccc(NC(=S)NC[C@@H]3[C@@H](O)[C@@H](O)[C@H]4[C@H](O)CCCN43)cc2)CC1,fluorescent lectin imaging,"10 µM, 48 h",,ConA binding to cell surface,increased
Cc1ccc2nc(-c3ccccc3)c(CNc3cccc(C(F)(F)F)c3)n2c1,cell growth or viability,48 h,,EC50,> 50 µM
O=C(/C=C/c1ccc(O)cc1)OCCCC[P+](c1ccccc1)(c1ccccc1)c1ccccc1,SRB,24 h,reference: IC50 L02 over IC50 HepG2,therapeutic index,6.93
Cc1ccc(NCC(=O)NC2CCC(F)(F)CC2)cc1S(=O)(=O)N1CCOCC1,cell growth or viability,,,EC50,> 25 µM
CN(C(=NN=C(c1ccccc1)c1ccccn1)[S][Ga]([Cl])[Cl])C1CCCCC1,PI flow cytometry,"5 µM, 24 h",reference: vehicle,G2 phase cells,decreased
Cc1ccc(NC(C)(C)C(=O)Nc2ccc(F)c(Cl)c2)cc1S(=O)(=O)N1CC2(COC2)C1,cell growth or viability,,,EC50,> 25 µM
N#CCC(=O)NNC(=S)Nc1ccc(Cl)c(Cl)c1,refers to: SREBP target genes,"up to 100 µM, 24 h",,mRNA level,no effect
